Measurements of several laboratories.
Each numbered part is a random draw from the data of one study; scales do not carry over between parts. Positions count from the first letter of the parent shown.
Chain of UniProt P28566 (whole entry, looked up): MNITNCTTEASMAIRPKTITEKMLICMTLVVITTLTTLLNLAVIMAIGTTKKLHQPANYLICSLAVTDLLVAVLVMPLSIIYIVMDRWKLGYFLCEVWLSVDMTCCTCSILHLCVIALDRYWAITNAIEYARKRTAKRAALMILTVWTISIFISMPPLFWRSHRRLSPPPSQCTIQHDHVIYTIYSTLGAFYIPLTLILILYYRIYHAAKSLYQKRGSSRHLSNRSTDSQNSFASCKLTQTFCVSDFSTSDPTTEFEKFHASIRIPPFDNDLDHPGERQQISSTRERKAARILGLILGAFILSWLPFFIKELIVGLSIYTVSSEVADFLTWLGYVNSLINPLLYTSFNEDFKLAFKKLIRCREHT

Sample 1 — target: CRIPT, C-terminal peptide; method: DHFR complementation, deep sequencing; matrix: yeast; reference: wild type; direction: higher = weaker binding; measurement: binding free energy change
Notes: single substitutions, model-inferred values
Starting sequence: ERBIN, PDZ domain 1 (human); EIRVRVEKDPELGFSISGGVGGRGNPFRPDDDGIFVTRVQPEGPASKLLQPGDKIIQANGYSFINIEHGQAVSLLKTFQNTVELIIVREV; partner TKNYKQTSV
S62A: 0.0741 kcal/mol
G18P: 1.59 kcal/mol
V4A: 0.126 kcal/mol
F78W: 0.142 kcal/mol
F78L: 0.115 kcal/mol
E1G: 0.128 kcal/mol
F78G: 0.155 kcal/mol
L74H: 0.0858 kcal/mol

Sample 2 — effect on: enzyme activity; mode: inhibitor; tested at: 0.5 µM; reference: control; measurement: remaining activity
Target: Serine/threonine-protein kinase 25 (STK25, Homo sapiens, UniProt O00506)
Chain of UniProt O00506 (whole entry, looked up): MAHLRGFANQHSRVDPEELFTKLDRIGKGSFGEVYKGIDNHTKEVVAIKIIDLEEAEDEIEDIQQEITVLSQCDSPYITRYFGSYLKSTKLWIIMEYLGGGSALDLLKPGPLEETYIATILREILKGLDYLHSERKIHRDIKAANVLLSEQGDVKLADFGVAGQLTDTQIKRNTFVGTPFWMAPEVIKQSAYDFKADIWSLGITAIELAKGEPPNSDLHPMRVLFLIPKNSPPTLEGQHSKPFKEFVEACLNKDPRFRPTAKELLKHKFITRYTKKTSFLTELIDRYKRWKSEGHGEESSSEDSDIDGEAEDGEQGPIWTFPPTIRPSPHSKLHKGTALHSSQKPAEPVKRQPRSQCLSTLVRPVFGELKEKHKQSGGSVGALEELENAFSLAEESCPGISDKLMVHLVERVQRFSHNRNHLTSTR
CC(C)N(CCC(=O)c1ccc2ccccc2c1)Cc1ccccc1: 94%
Nc1nc(Nc2ccc(S(N)(=O)=O)cc2)nn1C(=S)Nc1c(F)cccc1F: 8.18%
O=C1NC(=O)/C(=C/c2ccc3c(c2)OC(F)(F)O3)S1: 95.7%
COc1cc2c(Nc3ccc(Br)cc3F)ncnc2cc1OCC1CCN(C)CC1: 99%
CC(C)(C)c1nc2c3cc[nH]c(=O)c3c3cc(F)ccc3c2[nH]1: 86.9%
O=Nc1c(-c2c(O)[nH]c3ccccc23)[nH]c2ccccc12: 87.5%
NC(=O)c1cccc(-c2cc(Nc3ccc(OC(F)(F)F)cc3)ncn2)c1: 94.5%
CNc1cc2c(Nc3cccc(Br)c3)ncnc2cn1: 102%
C[C@@H](N)[C@H]1CC[C@H](C(=O)Nc2ccncc2)CC1: 95.8%
O=c1c(-c2ccc(F)cc2)c(-c2ccncc2)[nH]n1-c1ccc(Cl)cc1: 111%
O=C1c2ccccc2-c2nc3nnnn3nc21: 101%

Sample 3 — method: RNA Bind-n-Seq; molecule type: RNA; matrix: in vitro; tested at: 1 µM; notes: whole 134-nt RNA, ends assumed; with: 150 mM KCl; reference: input library; direction: higher = stronger binding; measurement: log2 enrichment
Target: Ras GTPase-activating protein-binding protein 1, C-terminal RGG region (G3BP1, Homo sapiens, UniProt Q13283)
Chain of UniProt Q13283 (whole entry, looked up): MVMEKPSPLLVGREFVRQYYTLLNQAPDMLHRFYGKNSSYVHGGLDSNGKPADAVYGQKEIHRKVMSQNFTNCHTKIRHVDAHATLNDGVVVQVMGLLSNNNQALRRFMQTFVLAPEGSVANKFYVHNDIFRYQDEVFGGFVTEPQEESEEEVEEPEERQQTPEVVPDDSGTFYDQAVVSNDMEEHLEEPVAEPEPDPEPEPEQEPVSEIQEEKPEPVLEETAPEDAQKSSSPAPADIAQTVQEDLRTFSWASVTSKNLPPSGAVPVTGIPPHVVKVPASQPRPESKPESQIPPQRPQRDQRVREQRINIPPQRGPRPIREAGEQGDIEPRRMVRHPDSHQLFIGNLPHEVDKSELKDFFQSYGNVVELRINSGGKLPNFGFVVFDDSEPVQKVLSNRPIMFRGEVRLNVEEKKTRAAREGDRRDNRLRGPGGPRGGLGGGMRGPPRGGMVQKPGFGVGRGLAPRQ
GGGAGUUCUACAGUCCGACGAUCUCAAGUCCUGUGCUACACAUCGUAUGUACCGAAUCGGAAAAAGGUGGUUUUUGGAAAGUAUUAUGUUACGCCGUUCGGAUCUGCACUUCCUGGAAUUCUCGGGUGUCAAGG: -1.25
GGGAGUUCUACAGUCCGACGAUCCAAGUCCUGUGCUACACAUCGUAUGUACCGAAUCGGGGUUUGGGGUUUGGUUUGGAAAGUAUUAUGUUACGCCGUUCGGAUCUGCACUUCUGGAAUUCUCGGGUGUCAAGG: -0.772
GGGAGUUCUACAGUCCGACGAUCUGUGAGCUGACUUUUUGGAUCAACUUUACUUUUCCCUUCUUUUUAGGCAAUUGAAGAUGAAGGUGGUAAUCCUGACGAAAUUGAAAUUACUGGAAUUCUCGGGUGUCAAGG: -0.567
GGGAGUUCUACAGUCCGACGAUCGUCCUGUGCUACACAUCGUAUGUACCGAAUCGGGAAAAAGGGGAAAAAGGGAAAAAGGGAAAGUAUUAUGUUACGCCGUUCGGAUCUGCAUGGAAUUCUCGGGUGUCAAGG: -0.545
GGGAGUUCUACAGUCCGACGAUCGCAGGAAGUAAAAACAAAUGGAAAUGCUUCGGAUAGUGGCAGGGGUGGGGGUUGCUAAGGAAAGGGUGGGAUGGGAGUGGGUAAAAAGUUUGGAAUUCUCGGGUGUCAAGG: 2.05
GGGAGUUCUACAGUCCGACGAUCACCAUGCAGGUGGGCAUCUUUGGGAAAAAGGGCAAGGGGGGGAUAGGGAGGGGGGUAACACUUUGGGAACAGGUGGUCCCAGGUCGUUUCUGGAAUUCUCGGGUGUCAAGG: -0.9
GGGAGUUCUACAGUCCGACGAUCAGUCCUGUGCUACACAUCGUAUGUACCGAAUCGGGGCCCCCGGGCCCCCGGCCCCCGGAAAGUAUUAUGUUACGCCGUUCGGAUCUGCACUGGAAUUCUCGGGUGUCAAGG: -1.85
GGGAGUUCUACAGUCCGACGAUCUGGCCCUGGUGGCCUGCGGGGAGGAAGAGGUGGCCUCAUGGAUCGUGGUGGUCCCGGUGGAAUGUUCAGAGGUGGCCGUGGUGGAGACAGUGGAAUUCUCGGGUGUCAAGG: 1.95

Single results of other studies
PhoQ, residues 284 288 289 292 302 303 SMMNNA
fold induction (PhoP, residues 12 14 15 18 19 VQGLL (Escherichia coli, UniProt P23836); Sort-seq, item: YFP reporter; E. coli; PhoQ-PhoP variant library, with: 10 µM Mg2+; reference: high Mg2+ state, higher = stronger signaling): 21.5

CC[C@H](CC(=O)O)n1c(=O)c2ncccc2n(Cc2cn(C)c3cc(C)cc(C)c23)c1=O
inhibition (HTR1E (Homo sapiens, UniProt P28566); ligand displacement; 10 µM): -9.73%

A few entries again (sample 2):
CC(C)(C)c1nc2c3cc[nH]c(=O)c3c3cc(F)ccc3c2[nH]1: 86.9%
O=Nc1c(-c2c(O)[nH]c3ccccc23)[nH]c2ccccc12: 87.5%
